Published values pooled from the literature.
A part holds a random share of what one study measured.
UniProt Q8TDU6, sequence (whole entry, looked up): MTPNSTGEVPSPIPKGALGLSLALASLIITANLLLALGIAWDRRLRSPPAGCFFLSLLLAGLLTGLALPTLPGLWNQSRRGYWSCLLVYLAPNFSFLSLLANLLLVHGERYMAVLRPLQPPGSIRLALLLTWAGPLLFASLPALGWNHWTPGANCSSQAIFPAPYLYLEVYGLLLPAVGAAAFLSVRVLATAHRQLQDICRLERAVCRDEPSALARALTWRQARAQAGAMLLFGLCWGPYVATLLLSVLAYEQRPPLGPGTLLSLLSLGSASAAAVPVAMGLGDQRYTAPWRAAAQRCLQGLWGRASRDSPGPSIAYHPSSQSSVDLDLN
UniProt Q9BZJ8, sequence (whole entry, looked up): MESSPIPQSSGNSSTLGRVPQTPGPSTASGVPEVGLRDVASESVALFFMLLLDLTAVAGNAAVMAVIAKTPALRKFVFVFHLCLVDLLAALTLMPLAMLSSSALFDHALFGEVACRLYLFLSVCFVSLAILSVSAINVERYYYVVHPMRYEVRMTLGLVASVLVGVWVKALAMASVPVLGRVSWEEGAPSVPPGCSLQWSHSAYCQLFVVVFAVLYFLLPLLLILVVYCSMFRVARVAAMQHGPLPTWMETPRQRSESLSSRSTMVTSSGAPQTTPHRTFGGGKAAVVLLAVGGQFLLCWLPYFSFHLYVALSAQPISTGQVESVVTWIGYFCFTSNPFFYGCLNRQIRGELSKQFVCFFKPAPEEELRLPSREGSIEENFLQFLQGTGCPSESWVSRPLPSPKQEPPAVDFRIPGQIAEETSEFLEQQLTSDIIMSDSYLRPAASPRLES
UniProt P49841, sequence (whole entry, looked up): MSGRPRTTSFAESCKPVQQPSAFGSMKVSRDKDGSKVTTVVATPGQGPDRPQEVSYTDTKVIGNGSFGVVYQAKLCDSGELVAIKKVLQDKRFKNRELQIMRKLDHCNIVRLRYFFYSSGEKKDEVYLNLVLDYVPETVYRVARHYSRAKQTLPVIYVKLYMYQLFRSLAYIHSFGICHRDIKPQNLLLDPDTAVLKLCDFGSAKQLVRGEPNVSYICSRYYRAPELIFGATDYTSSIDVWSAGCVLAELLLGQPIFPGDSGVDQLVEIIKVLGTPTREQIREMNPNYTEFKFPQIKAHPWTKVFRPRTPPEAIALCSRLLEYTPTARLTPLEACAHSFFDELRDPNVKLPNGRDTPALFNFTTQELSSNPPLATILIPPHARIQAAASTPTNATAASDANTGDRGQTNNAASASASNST
UniProt P49685, sequence (whole entry, looked up): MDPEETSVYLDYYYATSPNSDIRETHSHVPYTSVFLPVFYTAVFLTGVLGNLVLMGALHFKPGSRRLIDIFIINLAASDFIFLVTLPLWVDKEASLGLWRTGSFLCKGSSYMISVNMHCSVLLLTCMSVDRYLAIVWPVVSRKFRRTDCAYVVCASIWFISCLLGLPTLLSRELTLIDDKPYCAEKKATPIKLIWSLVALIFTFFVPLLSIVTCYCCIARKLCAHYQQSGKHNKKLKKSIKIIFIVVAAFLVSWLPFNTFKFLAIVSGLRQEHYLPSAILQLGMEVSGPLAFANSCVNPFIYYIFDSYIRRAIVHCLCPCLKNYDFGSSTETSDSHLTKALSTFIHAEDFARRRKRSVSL
UniProt O95382, sequence (whole entry, looked up): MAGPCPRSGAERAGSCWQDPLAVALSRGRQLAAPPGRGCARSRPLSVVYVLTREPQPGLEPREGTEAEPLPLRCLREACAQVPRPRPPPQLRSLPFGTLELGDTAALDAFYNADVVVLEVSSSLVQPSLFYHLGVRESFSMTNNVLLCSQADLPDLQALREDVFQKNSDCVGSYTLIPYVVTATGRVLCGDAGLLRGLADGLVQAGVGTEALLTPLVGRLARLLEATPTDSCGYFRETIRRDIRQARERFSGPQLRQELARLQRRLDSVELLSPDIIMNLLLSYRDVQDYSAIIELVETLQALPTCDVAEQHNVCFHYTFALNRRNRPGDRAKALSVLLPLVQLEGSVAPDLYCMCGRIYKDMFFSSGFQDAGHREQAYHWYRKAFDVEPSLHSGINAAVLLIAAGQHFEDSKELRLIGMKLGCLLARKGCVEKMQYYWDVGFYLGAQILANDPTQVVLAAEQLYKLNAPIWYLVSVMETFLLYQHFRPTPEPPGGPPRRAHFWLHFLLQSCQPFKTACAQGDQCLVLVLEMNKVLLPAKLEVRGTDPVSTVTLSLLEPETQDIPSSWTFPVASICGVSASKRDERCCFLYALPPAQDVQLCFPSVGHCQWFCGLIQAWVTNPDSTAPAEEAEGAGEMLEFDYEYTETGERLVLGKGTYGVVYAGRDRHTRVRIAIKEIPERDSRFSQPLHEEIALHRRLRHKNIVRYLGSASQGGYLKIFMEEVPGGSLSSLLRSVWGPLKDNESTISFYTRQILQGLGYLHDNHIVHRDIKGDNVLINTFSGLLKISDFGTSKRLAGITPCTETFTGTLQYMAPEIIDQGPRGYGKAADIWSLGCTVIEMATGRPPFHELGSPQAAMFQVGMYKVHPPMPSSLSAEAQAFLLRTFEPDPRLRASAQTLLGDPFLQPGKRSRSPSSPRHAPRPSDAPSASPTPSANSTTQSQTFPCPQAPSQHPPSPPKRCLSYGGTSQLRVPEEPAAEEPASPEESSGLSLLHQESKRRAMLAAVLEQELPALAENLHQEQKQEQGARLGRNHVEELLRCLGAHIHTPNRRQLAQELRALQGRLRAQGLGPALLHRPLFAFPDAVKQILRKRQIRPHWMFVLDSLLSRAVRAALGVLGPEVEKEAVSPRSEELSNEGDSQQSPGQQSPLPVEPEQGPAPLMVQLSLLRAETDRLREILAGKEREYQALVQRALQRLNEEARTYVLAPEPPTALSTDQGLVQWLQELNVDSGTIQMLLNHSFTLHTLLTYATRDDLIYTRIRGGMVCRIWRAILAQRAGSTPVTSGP
UniProt P29597, sequence (whole entry, looked up): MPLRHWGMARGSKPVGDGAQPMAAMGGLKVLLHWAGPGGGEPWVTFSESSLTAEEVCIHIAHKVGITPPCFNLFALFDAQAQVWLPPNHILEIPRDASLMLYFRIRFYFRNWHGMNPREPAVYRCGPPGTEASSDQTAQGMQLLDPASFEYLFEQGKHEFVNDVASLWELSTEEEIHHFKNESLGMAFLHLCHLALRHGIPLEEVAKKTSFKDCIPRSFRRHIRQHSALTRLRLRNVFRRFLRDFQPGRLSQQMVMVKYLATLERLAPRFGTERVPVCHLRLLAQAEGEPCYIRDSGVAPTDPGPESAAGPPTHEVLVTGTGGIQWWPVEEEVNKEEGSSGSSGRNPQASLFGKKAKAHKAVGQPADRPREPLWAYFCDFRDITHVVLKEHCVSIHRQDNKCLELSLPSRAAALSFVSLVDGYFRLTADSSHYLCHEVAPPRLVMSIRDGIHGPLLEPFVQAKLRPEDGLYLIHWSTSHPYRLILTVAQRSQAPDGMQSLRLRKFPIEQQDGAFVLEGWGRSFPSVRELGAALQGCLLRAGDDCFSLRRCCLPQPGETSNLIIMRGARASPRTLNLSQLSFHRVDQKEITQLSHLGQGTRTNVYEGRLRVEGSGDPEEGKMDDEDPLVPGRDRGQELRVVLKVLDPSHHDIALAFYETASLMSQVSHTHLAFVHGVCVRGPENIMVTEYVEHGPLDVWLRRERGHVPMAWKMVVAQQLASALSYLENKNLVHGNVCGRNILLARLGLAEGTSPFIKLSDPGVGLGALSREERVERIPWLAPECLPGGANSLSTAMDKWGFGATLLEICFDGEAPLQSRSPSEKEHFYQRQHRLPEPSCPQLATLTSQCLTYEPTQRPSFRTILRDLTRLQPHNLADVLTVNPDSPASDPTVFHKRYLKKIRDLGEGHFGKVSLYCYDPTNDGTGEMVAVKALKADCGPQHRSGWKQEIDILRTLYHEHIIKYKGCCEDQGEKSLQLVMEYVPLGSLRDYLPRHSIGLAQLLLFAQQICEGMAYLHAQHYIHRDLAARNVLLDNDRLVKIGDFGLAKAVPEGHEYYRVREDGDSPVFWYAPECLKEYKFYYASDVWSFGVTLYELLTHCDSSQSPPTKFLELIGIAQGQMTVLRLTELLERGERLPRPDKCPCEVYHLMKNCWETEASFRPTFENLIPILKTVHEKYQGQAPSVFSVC

Study 1 — Compound: CCN(c1nc(N)c(C(=O)N=C(N)N)nc1Cl)C(C)C; observed: β-arrestin recruitment; action: agonist; method: PRESTO-Tango; concentration: 10 µM; reference: untreated
The “fold over basal” was 0.59 (Adhesion G-protein coupled receptor D1 (ADGRD1, Homo sapiens, UniProt Q6QNK2)).
It gave 0.97 fold for “fold over basal” (TACR2 (Homo sapiens, UniProt P21452)).
It gave 1.07 fold for “fold over basal” (GPBAR1 (Homo sapiens, UniProt Q8TDU6)).
It gave 1.1 for “fold over basal” (G-protein coupled receptor 12 (GPR12, Homo sapiens, UniProt P47775)).
It gave 0.73 for “fold over basal” (G-protein coupled receptor 61 (GPR61, Homo sapiens, UniProt Q9BZJ8)).
For CHRM2 (Homo sapiens, UniProt P08172): “fold over basal” read 1.07.
For DRD2 (Homo sapiens, UniProt P14416): “fold over basal” read 0.64.
It gave 1.13 fold for “fold over basal” (GRM2 (Homo sapiens, UniProt Q14416)).
It gave 0.93 for “fold over basal” (G-protein coupled receptor 15 (Homo sapiens, UniProt P49685)).

Study 2 — observed: enzyme activity; action: inhibitor; concentration: 0.5 µM; reference: control
Target: Calcium/calmodulin-dependent protein kinase type 1G (CAMK1G, Homo sapiens, UniProt Q96NX5)
UniProt Q96NX5, sequence (whole entry, looked up): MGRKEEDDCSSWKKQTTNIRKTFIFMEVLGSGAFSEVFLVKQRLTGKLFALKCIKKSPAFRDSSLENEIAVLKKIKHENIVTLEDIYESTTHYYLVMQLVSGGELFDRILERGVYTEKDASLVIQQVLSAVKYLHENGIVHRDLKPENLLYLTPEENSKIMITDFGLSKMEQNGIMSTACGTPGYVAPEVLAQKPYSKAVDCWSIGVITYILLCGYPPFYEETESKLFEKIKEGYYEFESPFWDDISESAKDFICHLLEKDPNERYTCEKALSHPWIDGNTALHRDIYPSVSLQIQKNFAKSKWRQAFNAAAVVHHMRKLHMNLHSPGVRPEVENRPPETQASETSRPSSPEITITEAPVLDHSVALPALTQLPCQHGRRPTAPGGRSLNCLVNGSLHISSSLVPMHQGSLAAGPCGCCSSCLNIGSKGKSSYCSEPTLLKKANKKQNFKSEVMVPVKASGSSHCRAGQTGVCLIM
With `c1ccc(-c2n[nH]c3c2oc2ccccc23)cc1` the remaining activity was 100%.
For `c1ccc2c(-c3ccncc3)c[nH]c2c1`, the remaining activity was 99%.
The remaining activity of `Oc1cccc(-c2nc(N3CCOCC3)c3oc4ncccc4c3n2)c1` is reported as 99.2%.
With `O=Nc1c(-c2c(O)[nH]c3cc(Br)ccc23)[nH]c2ccccc12` the remaining activity was 96%.
`COc1cc2c(N3CCN(C(=O)Nc4ccc(OC(C)C)cc4)CC3)ncnc2cc1OCCCN1CCCCC1` gave a remaining activity of 94.6%.
For `COc1ccc2c(c1)c(C1=C(c3c[nH]c4ccccc34)C(=O)NC1=O)cn2CCCN(C)C`, the remaining activity was 95%.
`CN1CCN(c2ccc3nc(-c4c(N)c5c(F)cccc5[nH]c4=O)[nH]c3c2)CC1` has a remaining activity of 100%.
`CNc1cc2c(Nc3cccc(Br)c3)ncnc2cn1` gave a remaining activity of 97.9%.
`FC(F)(F)c1ccc(/C=C/c2nc(COc3ccc(CCCCn4ccnn4)cc3)co2)cc1` gave a remaining activity of 95%.
For `O=c1c(-c2ccc(F)cc2)c(-c2ccncc2)[nH]n1-c1ccc(Cl)cc1`, the remaining activity was 104%.
`O=C1NC(=O)/C(=C/c2ccc3c(c2)OC(F)(F)O3)S1` gave a remaining activity of 107%.
`O=Nc1c(-c2c(O)[nH]c3ccccc23)[nH]c2ccccc12` has a remaining activity of 101%.
The remaining activity of `CN(C)S(=O)(=O)c1ccc2c(c1)/C(=C/c1cc3c([nH]1)CCCC3)C(=O)N2` is reported as 97.1%.
The remaining activity of `CCCNC(=O)Nc1ccc(Oc2ncnc3cc(OC)c(OC)cc23)cc1Cl` is reported as 103%.
For `N#C/C(=C(/N)SC1C=CC=CC1)c1cccc(C(O)c2ccncc2)c1` (centres unmarked), the remaining activity was 93.8%.
`N#Cc1cnc2cnc(NCc3cccnc3)cc2c1Nc1ccc(F)c(Cl)c1` has a remaining activity of 96.1%.
`O=C1Nc2ccc(Br)cc2/C1=C/c1cc2c([nH]1)CCCC2` has a remaining activity of 103%.
For `CCCCc1c(-c2ccc(OC)cc2)[nH]c2nccnc12`, the remaining activity was 102%.
`O=C(c1ccccc1)c1ccc(N2CCOCC2)cc1O` has a remaining activity of 96.1%.
The remaining activity of `CC(C)(C)c1nc2c3cc[nH]c(=O)c3c3cc(F)ccc3c2[nH]1` is reported as 95.3%.
With `c1cc(-c2cnn3cc(-c4ccc(OCCN5CCCCC5)cc4)cnc23)ccn1` the remaining activity was 99.9%.
For `O=C(c1cc2cc(O)ccc2[nH]1)c1cc2cc(O)ccc2[nH]1`, the remaining activity was 101%.

Study 3 — concentration: 1 µM
Structure (SMILES): Cc1c(NC(=O)c2cc(C(N)=O)nc3cc(F)ccc23)c(C(F)(F)F)nn1Cc1ccc(C(C)(C)C)cc1
For MAPK11 (Homo sapiens, UniProt Q15759); cell-free assay, competition with immobilised ligand: remaining binding read 91%.
MAP3K15 (Homo sapiens, UniProt Q6ZN16); cell-free assay, competition with immobilised ligand — remaining binding: 95%.
The remaining binding was 83% (AAK1 (Homo sapiens, UniProt Q2M2I8); binding).
It gave 100% for remaining binding (Tyrosine-protein kinase ABL1, non-phosphorylated (ABL1, Homo sapiens, UniProt P00519, F317L); cell-free assay, competition with immobilised ligand).
The remaining binding was 89% (ERN1 (Homo sapiens, UniProt O75460); cell-free assay, competition with immobilised ligand).
The remaining binding was 100% (MAP3K6 (Homo sapiens, UniProt O95382); cell-free assay, competition with immobilised ligand).
It gave 100% for remaining binding (GSK3B (Homo sapiens, UniProt P49841); cell-free assay, competition with immobilised ligand).
For PIK3CA (Homo sapiens, UniProt P42336, E542K); cell-free assay, competition with immobilised ligand: remaining binding read 43%.
It gave 100% for remaining binding (SRC (Homo sapiens, UniProt P12931); cell-free assay, competition with immobilised ligand).
The remaining binding was 100% (CHUK (Homo sapiens, UniProt O15111); cell-free assay, competition with immobilised ligand).
The remaining binding was 100% (Non-receptor tyrosine-protein kinase TYK2, JH1 (TYK2, Homo sapiens, UniProt P29597); cell-free assay, competition with immobilised ligand).

Study 4 — action: inhibitor; concentration: 10 µM; reference: control
Target: Diamine acetyltransferase 1 (Homo sapiens, UniProt P21673)
Construct (P21673 1-171): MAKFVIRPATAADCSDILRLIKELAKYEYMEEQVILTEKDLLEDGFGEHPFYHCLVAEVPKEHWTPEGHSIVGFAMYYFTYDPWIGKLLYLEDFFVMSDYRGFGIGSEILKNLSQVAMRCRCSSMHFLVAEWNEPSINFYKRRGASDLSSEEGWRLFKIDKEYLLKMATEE
For `C[C@@H]1O[C@@H](O[C@H]2[C@H](OC(=O)[C@]34CCC(C)(C)C[C@H]3C3=CC[C@@H]5[C@@]6(C)C[C@H](O)[C@H](O[C@@H]7O[C@H](CO[C@@H]8O[C@H](CO)[C@@H](O)[C@H](O)[C@H]8O)[C@@H](O)[C@H](O)[C@H]7O)C(CO)(CO)[C@@H]6CC[C@@]5(C)[C@]3(C)C[C@H]4O)OC[C@H](O)[C@@H]2O)[C@H](O)[C@H](O)[C@H]1O[C@@H]1OC[C@@H](O)[C@H](O)[C@H]1O`, the remaining activity was 111%.
With `C[C@H](CC(=O)C[C@@H](C)[C@H]1C[C@H](O)[C@@]2(C)C3=C(C(=O)C[C@]12C)[C@@]1(C)CCC(=O)C(C)(C)[C@@H]1C[C@@H]3O)C(=O)O` the remaining activity was 85.3%.
`CCCCC/C=C\C/C=C\CCCCCCCC(=O)OCC(O)CO` (centres unmarked) has a remaining activity of 93.4%.
`CCCCCCCCCCCCCCCCCCCCCC(=O)OC` gave a remaining activity of 96.6%.
With `CC1=CC(=O)C(C(C)C)CC1` (centres unmarked) the remaining activity was 101%.
For `C=C[C@H]1[C@H](O[C@@H]2O[C@H](CO)[C@@H](O)[C@H](O)[C@H]2O)OC=C(C(=O)OC)[C@H]1CCOC(=O)c1cc(O)c(O)c(O)c1`, the remaining activity was 98.9%.
The remaining activity of `CC(C)=C[C@H]1C[C@](C)(O)[C@@H]2[C@H]3CC[C@@H]4[C@@]5(C)CC[C@H](O[C@@H]6OC[C@H](O)[C@H](O[C@@H]7O[C@H](CO)[C@@H](O)[C@H](O)[C@H]7O[C@@H]7OC[C@@H](O)[C@H](O)[C@H]7O)[C@H]6O[C@@H]6O[C@@H](C)[C@H](O)[C@@H](O)[C@H]6O)C(C)(C)[C@@H]5CC[C@@]4(C)[C@@]34CO[C@@]2(C4)O1` is reported as 104%.
With `COc1cc2ccc(=O)oc2cc1O[C@@H]1O[C@H](CO)[C@@H](O)[C@H](O)[C@H]1O` the remaining activity was 103%.

A few entries again (study 2):
For `COc1ccc2c(c1)c(C1=C(c3c[nH]c4ccccc34)C(=O)NC1=O)cn2CCCN(C)C`, the remaining activity was 95%.
`CN1CCN(c2ccc3nc(-c4c(N)c5c(F)cccc5[nH]c4=O)[nH]c3c2)CC1` has a remaining activity of 100%.
`CNc1cc2c(Nc3cccc(Br)c3)ncnc2cn1` gave a remaining activity of 97.9%.
